Measured values from different studies.
Each line is one published result; not all experiments were run side by side. ± gives the spread as reported.

Structure (SMILES)	organism	assay	system	conditions	how to read	endpoint	value
CC[C@@H](C)[C@@H](NC(=O)[C@@H](C)NC(=O)[C@@H](CCCCN)NC(=O)[C@@H](CC(C)C)NC(=O)[C@@H](CC(C)C)NC(=O)[C@H](NC(=O)[C@@H](CCCCN)NC(=O)[C@@H](CC(C)C)NC(=O)[C@@H](C)NC(=O)[C@@H](CCCCN)NC(=O)[C@@H](CCCCN)NC(=O)[C@@H](CCCCN)NC(=O)[C@@H](C)NC(=O)[C@@H](CCCCN)NC(=O)[C@@H](CO)NC(=O)[C@@H](Cc1ccccc1)NC(=O)[C@H](NC(=O)[C@@H](CCCCN)NC(=O)[C@@H](CC(C)C)NC(=O)[C@@H](Cc1ccccc1)NC(=O)[C@@H](CO)NC(=O)[C@@H](CCCCN)NC(=O)[C@@H](Cc1c[nH]c2ccccc12)NC(=O)[C@@H](CCCCN)NC(C)=O)[C@H](C)O)[C@H](C)O)C(=O)N[C@H](CO)C(=O)N[C@H](CCCCN)C(N)=O	Acinetobacter baumannii		759, Mueller-Hinton broth	24 h, 37 °C		MIC	0.7 µM
CN(C)Cc1cc(N(C)C)c2c(c1O)C(=O)C1=C(O)[C@]3(O)C(=O)C(C(N)=O)=C(O)[C@@H](N(C)C)[C@@H]3C[C@@H]1C2	Streptococcus pneumoniae	microbial growth, broth dilution				MIC	0.25 µg/mL
CC[C@H](C)[C@H](NC(=O)[C@H](CCCCNC(=N)N)NC(=O)[C@H](CC(N)=O)NC(=O)[C@H](CC(C)C)NC(=O)[C@H](Cc1ccccc1)NC(=O)[C@H](CCCCNC(=N)N)NC(=O)[C@H](CCCCNC(=N)N)NC(=O)[C@H](CC(C)C)NC(=O)[C@H](CC(C)C)NC(=O)[C@H](CCCCNC(=N)N)NC(=O)[C@H](CCCCNC(=N)N)NC(=O)[C@H](CC(C)C)NC(=O)CNC(C)=O)C(=O)N[C@@H](CCCCNC(=N)N)C(=O)N[C@@H](CCCCNC(=N)N)C(N)=O	all bacteria tested					geometric mean MIC	4.42 µM
CN(C)c1cc(CNCc2ccc(O)cc2)c(O)c2c1C[C@H]1C[C@H]3[C@H](N(C)C)C(O)=C(C(N)=O)C(=O)[C@@]3(O)C(O)=C1C2=O	Streptococcus pneumoniae		ATCC 700905, Tet M ribosome protection			MIC	1 µg/mL
COc1ccc(Nc2c(C#N)cnc3ccc(Cl)cc23)cc1	Trypanosoma cruzi		cardiomyocytes, intracellular amastigotes, Y	at least 15 µM, 72 h		reduction of endocytic index	~70%
Cc1ccc2nc(-c3ccc(F)c(F)c3)cn2c1	Trypanosoma cruzi		3T3 host cells, Tulahuen beta-galactosidase	6 days		EC50	> 5 µM
CCn1ccc([C@H](C)[C@](O)(Cn2cnnn2)c2ccc(F)cc2F)n1	Candida tropicalis	growth, broth microdilution	2718	24 h, 30 °C, ≥50% inhibition		MIC	1 µg/mL
Nc1cc2nc(-c3ccc(F)c(F)c3)cn2cn1	Trypanosoma cruzi		3T3 host cells, Tulahuen beta-galactosidase	6 days		EC50	> 20 µM
CN(C)c1cc(CNC2CCCCC2)c(O)c2c1C[C@H]1C[C@H]3[C@H](N(C)C)C(O)=C(C(N)=O)C(=O)[C@@]3(O)C(O)=C1C2=O	Streptococcus pneumoniae	microbial growth, broth dilution				MIC	0.5 µg/mL
CCCCCc1ccc2c(c1O)C(c1ccc(OC)c(OC)c1)OC2=O (stereo not shown)	Naegleria fowleri	trophozoite ATP, CellTiter-Glo	ATCC 30808	concentration not given, 24 h, 37 °C	baseline: untreated	ATP level decrease	98.9%
C[C@@H](c1ccn(Cc2ccc(OC(F)(F)F)cc2)n1)[C@](O)(Cn1cnnn1)c1ccc(F)cc1F	Candida tropicalis	growth, broth microdilution	2718	24 h, 30 °C, ≥50% inhibition		MIC	< 0.008 µg/mL
CN(C)c1cc(CNC(=O)C(C)(C)C)c(O)c2c1C[C@H]1C[C@H]3[C@H](N(C)C)C(O)=C(C(N)=O)C(=O)[C@@]3(O)C(O)=C1C2=O	Streptococcus pneumoniae		ATCC 700905, Tet M ribosome protection			MIC	2 µg/mL
CCc1ccc2c(c1O)C(c1ccc(OC)c(OC)c1)OC2=O (stereo not shown)	Naegleria fowleri	parasite growth, resazurin	ATCC30808	48 h		IC50	≥ 318 µM
Oc1ccccc1/C=N/NC(=S)Nc1cccc(F)c1	Candida tropicalis	broth microdilution	2718		baseline: hit compound	MIC fold improvement	2 fold
Cc1ccc2nc(-c3ccccc3)c(CN(C)C)n2c1	Trypanosoma cruzi		3T3 host cells, Tulahuen beta-galactosidase	6 days		EC50	> 20 µM
COc1ccc(C2OC(=O)c3ccc(-c4ccccc4)c(O)c32)c(OC)c1OC (stereo not shown)	Naegleria fowleri	trophozoite ATP, CellTiter-Glo	ATCC 30808	concentration not given, 24 h, 37 °C	baseline: untreated	ATP level decrease	66.5%

Structure (SMILES)	organism	assay	system	conditions	how to read	endpoint	value
C=C(C)[C@@H]1CC[C@]2(C(N)=O)CC[C@]3(C)[C@H](CC[C@@H]4[C@@]5(C)CCCNC(C)(C)[C@@H]5CC[C@]43C)[C@@H]12	Human cytomegalovirus		HFF, AD169		baseline: CC50 over EC50	selectivity index	< 3
COC(=O)C1=C(C)N(Cc2ccc(Br)cc2)C(=S)CC1c1ccc(OC)cc1 (stereo not shown)	Saccharomyces cerevisiae	refers to: Rlm1-lacZ		up to 20 µM, added: calcofluor white		reporter gene	no effect
Cc1ccc(-c2cn([C@H]3C[C@H](O)[C@@H](CO)O3)c3ncnc(N)c23)cc1Cl	Trichomonas vaginalis	resorufin	G3, metronidazole-sensitive	24 h + 2 h, 2% O2		EC50	1.11 ± 0.05 µM
CC[C@H](C)[C@H](NC(=O)[C@H](CCCN)NC(=O)[C@H](CC(N)=O)NC(=O)[C@H](CC(C)C)NC(=O)[C@H](Cc1ccccc1)NC(=O)[C@H](CCCN)NC(=O)[C@H](CCCCNC(=N)N)NC(=O)[C@H](CC(C)C)NC(=O)[C@H](CC(C)C)NC(=O)[C@H](CCCN)NC(=O)[C@H](CCCCNC(=N)N)NC(=O)[C@H](CC(C)C)NC(=O)CNC(C)=O)C(=O)N[C@@H](CCCN)C(=O)N[C@@H](CCCCNC(=N)N)C(N)=O	all bacteria tested					geometric mean MIC	4.42 µM
CNCc1cc(N(C)C)c2c(c1O)C(=O)C1=C(O)[C@]3(O)C(=O)C(C(N)=O)=C(O)[C@@H](N(C)C)[C@@H]3C[C@@H]1C2	Streptococcus pneumoniae	microbial growth, broth dilution				MIC	1 µg/mL
Nc1ncnc2c1c(-c1ccc(Cl)c(F)c1)cn2[C@@H]1O[C@H](CO)[C@@H](O)[C@H]1O	Trichomonas vaginalis	resorufin	G3, metronidazole-sensitive	24 h + 2 h, 2% O2		EC50	0.12 ± 0.009 µM
CC1(C)CC[C@]23CC[C@]4(C)[C@H](CC[C@@H]5[C@@]6(C)CCCNC(C)(C)[C@@H]6CC[C@]54C)[C@H]2[C@H]1OC3	Human cytomegalovirus	cytopathic effect	HFF, AD169	concentration not given		antiviral activity	inactive
COc1cc(/C=C/c2cc(/C=C/c3ccc(O)c(OC)c3)n(-c3ccc([N+](=O)[O-])cc3[N+](=O)[O-])n2)ccc1O	Spodoptera frugiperda	cell growth or viability, MTT	Sf9	100 µM, 72 h		inhibition	91.7%
CNC1=C([N+](=O)[O-])C2(C(=O)Nc3ccc(Cl)cc32)C2=C(O1)C(=O)c1ccccc1C2=O (stereo not shown)	Streptococcus pneumoniae		MTCC 655	250 µg/mL, 24 h		growth inhibition	100%
C[C@@H](c1ccn(Cc2ccc(F)c(C(F)(F)F)c2)n1)[C@](O)(Cn1cnnn1)c1ccc(F)cc1F	Candida tropicalis	growth, broth microdilution	2718	24 h, 30 °C, ≥50% inhibition		MIC	< 0.008 µg/mL
CC(C)CNCc1cc(N(C)C)c2c(c1O)C(=O)C1=C(O)[C@]3(O)C(=O)C(C(N)=O)=C(O)[C@@H](N(C)C)[C@@H]3C[C@@H]1C2	Streptococcus pneumoniae		157E	50% mouse serum		MIC	0.25 µg/mL
Cc1n[nH]c(=O)c2nn(-c3ccccc3)c(C)c12	Zika virus		Vero, MR766		baseline: CC50 over EC50	selectivity index	3.7
CN(C)c1cc(CNC2CCCC2)c(O)c2c1C[C@H]1C[C@H]3[C@H](N(C)C)C(O)=C(C(N)=O)C(=O)[C@@]3(O)C(O)=C1C2=O	Streptococcus pneumoniae		ATCC 700905, Tet M ribosome protection			MIC	0.125 µg/mL
CC1(C)NCCC[C@]2(C)[C@H]3C=CC4=C5C[C@@](C)(CO)CC[C@]5(C)CC[C@@]4(C)[C@]3(C)CC[C@@H]12	Human cytomegalovirus	cytopathic effect	HFF, AD169			EC90	> 30 µM
CC1(CCCCCCCCCCCCOCCCOP(=O)(O)CO[C@H](CO)Cn2ccc(N)nc2=O)COC1	JC polyomavirus	qPCR	COS-7, MAD-4		baseline: CC50 over EC50	selectivity index	> 6

Repeated from above:
Structure (SMILES)	organism	assay	system	conditions	how to read	endpoint	value
COc1cc(/C=C/c2cc(/C=C/c3ccc(O)c(OC)c3)n(-c3ccc([N+](=O)[O-])cc3[N+](=O)[O-])n2)ccc1O	Spodoptera frugiperda	cell growth or viability, MTT	Sf9	100 µM, 72 h		inhibition	91.7%
Cc1ccc(-c2cn([C@H]3C[C@H](O)[C@@H](CO)O3)c3ncnc(N)c23)cc1Cl	Trichomonas vaginalis	resorufin	G3, metronidazole-sensitive	24 h + 2 h, 2% O2		EC50	1.11 ± 0.05 µM
CCCCCc1ccc2c(c1O)C(c1ccc(OC)c(OC)c1)OC2=O (stereo not shown)	Naegleria fowleri	trophozoite ATP, CellTiter-Glo	ATCC 30808	concentration not given, 24 h, 37 °C	baseline: untreated	ATP level decrease	98.9%
CC1(CCCCCCCCCCCCOCCCOP(=O)(O)CO[C@H](CO)Cn2ccc(N)nc2=O)COC1	JC polyomavirus	qPCR	COS-7, MAD-4		baseline: CC50 over EC50	selectivity index	> 6
